Experimental data gathered from unrelated publications.
Protocols differ between the studies behind these lines. Several values in a cell are separate wells, animals, samples, runs or records. ± gives the spread as reported.
ALB: Albumin (ALB, Homo sapiens, UniProt P02768)
KRAS G12D GDP-bound: GTPase KRas, GDP-bound (KRAS, Homo sapiens, UniProt P01116, G12D)
uncharacterized protein: uncharacterized protein (Spodoptera exigua, UniProt F1CEY0)
GUK1: GUK1 (Homo sapiens, UniProt Q16774)
ADORA2A: Adenosine receptor A2a (ADORA2A, Homo sapiens, UniProt P29274)
Grin1 with GluN2C: Glutamate receptor ionotropic, NMDA 1, with GluN2C (Grin1, Rattus norvegicus, UniProt P35439)
T1: ssDNA, aptamer; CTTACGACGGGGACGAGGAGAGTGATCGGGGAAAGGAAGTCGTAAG

SMILES	target	test	test system	conditions	how to read	measurement	result
CCCC(CCC)c1nc2c(Nc3ccc(C#CCCCCCCCCN)cc3)nc3ccccc3c2[nH]1	HRH2 (Homo sapiens, UniProt P25021)	PDSP screening	–	–	–	off-target affinity	inactive
CC1=C(/C=C/C(C)=C/C=C/C(C)=C/C=O)C(C)(C)CCC1	Rhodopsin (RHO, Bos taurus, UniProt P02699, I189A)	retinal release, Trp FRET	lipid bicelles	28 °C, I189A mutant	relative to: wild-type rhodopsin	relative koff	1.81 ± 0.02
COc1cc(-c2[o+]c3cc(O)cc(O)c3cc2O[C@@H]2O[C@H](CO)[C@@H](O)[C@H](O)[C@H]2O)ccc1O	ALB	binding, visible absorption	–	50 µM, pH 7, added: HSA up to 200 µM	relative to: without HSA	bathochromic shift	34 nm
CC[C@H](C)[C@@H]1NC(=O)[C@H](Cc2ccc(-c3ccccc3)cc2)NC(=O)[C@H](CC(C)C)NC(=O)[C@@H]2[C@@H](c3ccccc3)CCN2C(=O)[C@@H](NC(=O)[C@H](CCCNC(=N)N)NC(=O)[C@H](CCCNC(=N)N)NC(C)=O)CSSC[C@@H](C(=O)N[C@@H](CCCNC(=N)N)C(=O)N[C@@H](CCCNC(=N)N)C(N)=O)NC(=O)[C@H](C(C)C)NC(=O)[C@@H]2CCCN2C(=O)[C@H](CC(=O)O)NC(=O)[C@H](Cc2ccc(O)cc2)NC(=O)[C@H](CO)NC1=O	KRAS G12D GDP-bound	affinity selection mass spectrometry	–	mixture library 3, added: protein titration up to 2.5 µM	lower is stronger binding	lowest bound protein concentration	0.04 µM
CC1=CC[C@H](C(C)C)C=C1	uncharacterized protein	binding, competitor, fluorescence displacement	–	20 µM, pH 7.4, added: 1-NPN 20 µM	relative to: 1-NPN alone	relative fluorescence	67.1%
COc1cc2c(cc1OC)-c1cc3ccc(OC)c(OC)c3c[n+]1CC2	lipase	inhibitor, Lineweaver-Burk	–	0.1 mM	–	Vmax	0.098 ΔA/min
NCCCC(=O)O	SLC6A6 (Homo sapiens, UniProt P31641, G62A)	binding, microscale thermophoresis	–	500 µM, room temperature, added: 50 nM labelled protein	higher = more binding	normalised MST signal	0.0814
Nc1ncnc2c1ncn2[C@@H]1O[C@H](COP(=O)(O)OP(=O)(O)OP(=O)(O)O)[C@@H](O)[C@H]1O	T1, ssDNA, aptamer	ITC	–	–	–	Kd	803 nM
C#Cc1c(F)ccc2cc(O)cc(-c3ncc4c(N5CC6CCC(C5)N6)nc(OC[C@@]56CCCN5C[C@H](F)C6)nc4c3F)c12	GTPase KRas, GppNHp-bound (KRAS, Homo sapiens, UniProt P01116)	SPR	–	GDP-bound	relative to: mutant KD over wild-type KD	affinity loss vs wild type	20 fold
Nc1nc2c(ncn2[C@@H]2O[C@H](COP(=O)(O)O)[C@@H](O)[C@H]2O)c(=O)[nH]1	GUK1	enzyme activity, NADH-coupled	–	500 µM, added: NaCl 50 mM	–	reaction velocity	0.0854 µM/s and 0.0943 µM/s and 0.0824 µM/s
CN(C)C(=O)C(CCN1CCC(O)(c2ccc(Cl)cc2)CC1)(c1ccccc1)c1ccccc1	Calcium-activated potassium channel subunit alpha-1, with LRRC26 γ1 subunit (KCNMA1, Homo sapiens, UniProt Q12791)	BK current, inhibitor, inside-out patch clamp	excised membrane patch	0.3 µM, γ1 subunit coexpressed, added: nominally 0 Ca2+ cytosolic	relative to: without loperamide	normalized Gmax	0.784
NC(N)=NCCC[C@H](N)C(=O)Nc1ccc2ccccc2c1	Puromycin-sensitive aminopeptidase (Rattus norvegicus, UniProt F1M9V7)	substrate	–	MW 100 kDa	–	kcat	27.2 s⁻¹
Cc1cc(O)c(C(C)C)cc1N=C1CSC(=O)N1	ADORA2A	radioligand displacement	–	added: [3H]ZM241385	–	ligand efficiency	0.44
Nc1ncnc2c1ncn2[C@@H]1O[C@H](COP(=O)(O)CP(=O)(O)OP(=O)(O)O)[C@@H](O)[C@H]1O	P2X purinoceptor 1 (P2RX1, Homo sapiens, UniProt P51575, S286A)	calcium influx	–	31.6 nM	relative to: ionomycin response	calcium influx	4.52% and 5.19% and 5.5% and 2.54%
COCCC(=O)N1CCC(Oc2ccccc2)C1 (stereo not drawn)	DNA mismatch repair protein Msh6 (Homo sapiens, UniProt P52701)	binding, affinity selection mass spectrometry	–	–	relative to: other proteins in batch	log fold enrichment	0.168
Cc1occc(=O)c1[O-].[Cl-].[W+4].c1cc[cH-]c1.c1cc[cH-]c1	ALB	fluorescence quenching	–	288 K	–	Stern-Volmer quenching constant	11900 L/mol
[O-][S+]1CCCCS1 (stereo not drawn)	SOD1 (Homo sapiens, UniProt P00441, G94A)	LC-MS	human whole blood	500 µM, 1 h, 37 °C	–	SOD1 monomer fraction	41%
Nc1ncnc2c1ncn2[C@@H]1O[C@H](COP(=O)(O)OP(=O)(O)OP(=O)(O)O)[C@@H](O)[C@H]1O	P2X purinoceptor 7 (P2rx7, Rattus norvegicus, UniProt Q64663)	ion current, agonist, two-electrode voltage clamp	Xenopus laevis oocytes	111 µM	relative to: highest concentration response	normalized current	0.93 and 0.8 and 0.82
COc1cc(Nc2ncc3c(n2)-c2ccc(Cl)cc2C(c2c(F)cccc2OC)=NC3)ccc1C(=O)O	CAMK2B	kinase activity	–	1 µM	–	remaining activity	96%
CCCCCCCCCCCC(C)=O	uncharacterized protein	binding, competitor, fluorescence displacement	–	20 µM, pH 7.4, added: 1-NPN 20 µM	relative to: 1-NPN alone	relative fluorescence	60.3%
Nc1nc2c(ncn2[C@@H]2O[C@H](COP(=O)(O)OP(=O)(O)O[C@H]3O[C@H](CO)[C@@H](O)[C@H](O)[C@@H]3O)[C@@H](O)[C@H]2O)c(=O)[nH]1	AncA ancestral enzyme	substrate, GDP-Glo GDP release	–	pH 6.5, 27 °C, apparent Km, added: 25 mM mannose acceptor	–	Km	310 ± 20 µM
COC(=O)c1ccccc1O	uncharacterized protein	binding, competitor, fluorescence displacement	–	20 µM, pH 7.4, added: 1-NPN 20 µM	relative to: 1-NPN alone	relative fluorescence	71.6%
N[C@H](CNC(=O)c1cc(Br)c(-c2ccccc2F)s1)C(=O)O	Grin1 with GluN2C	–	–	added: glutamate 300 µM	–	Hill slope	1.29

SMILES	target	test	test system	conditions	how to read	measurement	result
CC[C@H](C)[C@@H]1NC(=O)[C@H](Cc2ccc(-c3ccccc3)cc2)NC(=O)[C@H](COC)NC(=O)[C@@H]2CCCN2C(=O)[C@@H](NC(=O)[C@H](CCCNC(=N)N)NC(=O)[C@H](CCCNC(=N)N)NC(C)=O)CSSC[C@@H](C(=O)N[C@@H](CCCNC(=N)N)C(=O)N[C@@H](CCCNC(=N)N)C(N)=O)NC(=O)[C@H](C(C)C)NC(=O)[C@@H]2CCCN2C(=O)[C@H](CC(=O)O)NC(=O)[C@H](Cc2ccc(O)cc2)NC(=O)[C@H](CO)NC1=O	KRAS G12D GDP-bound	affinity selection mass spectrometry	–	mixture library 3, added: protein titration up to 2.5 µM	lower is stronger binding	lowest bound protein concentration	0.62 µM
N[C@H](CNC(=O)c1ccc(-c2ccccc2Br)s1)C(=O)O	Glutamate receptor ionotropic, NMDA 1, with GluN2C (Grin1, Rattus norvegicus, UniProt P35439, S688A)	receptor activation	rat	added: glutamate 300 µM	–	log EC50	-2.29 µM
O=c1nc(SCc2cc(F)cc(C(F)(F)F)c2)nc(SCc2csc3ccc(Cl)cc23)[nH]1	TOP2A (Homo sapiens, UniProt P11388)	DNA cleavage	–	1.95 µM, replicate 2	–	linear DNA	0%
N[C@H](CNC(=O)c1ccc(-c2cccc3ccccc23)s1)C(=O)O	Grin1 with GluN2C	–	–	added: glutamate 300 µM	–	Hill slope	1.1
CC[C@@H]1[C@H](F)C(=O)N[C@@H]1COc1nccc2cc(C(N)=O)c(OC)cc12	EPHA2 (Homo sapiens, UniProt P29317)	ATP probe binding, KiNativ profiling, refers to: activation loop probe site	THP-1 cell lysate	0.04 mM	–	inhibition	-11.2%
O=C(COP(=O)(O)O)[C@@H](O)[C@H](O)[C@H](O)COP(=O)(O)O	Splicing factor U2AF 65 kDa subunit (Homo sapiens, UniProt P26368)	thermal proteome profiling, refers to: U2AF2	HepG2 cell lysate	concentration not given, 57 over 37 °C, mean	relative to: compound over control	thermal stability ratio	0.523
CC[C@H](C)[C@@H]1NC(=O)[C@H](CO)NC(=O)[C@@H]2CCCN2C(=O)[C@@H](NC(=O)CN)CSSC[C@@H]2NC(=O)CNC(=O)[C@H](C)NC(=O)[C@H](CC(C)C)NC(=O)[C@@H]3CSSC[C@@H](C(=O)NCC(=O)O)NC(=O)[C@H](Cc4ccccc4)NC(=O)CNC(=O)[C@H](CC(N)=O)NC(=O)[C@@H]4CCCN4C(=O)CNC(=O)[C@H](CSSC[C@H](NC(=O)[C@H](CCCNC(=N)N)NC(=O)[C@H](CCC(N)=O)NC(=O)[C@H](CCCNC(=N)N)NC(=O)[C@H](CCCCN)NC(=O)[C@H](C(C)C)NC(=O)[C@H](CO)NC(=O)[C@H](CC(N)=O)NC1=O)C(=O)N[C@@H](CCCCN)C(=O)N[C@@H](CCC(N)=O)C(=O)N[C@@H](CC(=O)O)C(=O)N[C@@H](CO)C(=O)N[C@@H](CC(=O)O)C(=O)N3)NC(=O)[C@H](C(C)C)NC2=O	Low-density lipoprotein receptor-related protein 6, E1 domain (LRP6, Homo sapiens, UniProt O75581)	binding, SPR	–	pH 7.5	–	kon	1.79e+06 ± 330000 M⁻¹ s⁻¹
Cc1cc(-c2ccnc3[nH]cc(F)c23)cc(F)c1[C@@]1(O)[C@H](C)CN(C(=O)CN)C[C@@H]1C	JAK1 (Homo sapiens, UniProt P23458)	ATP/ADP probe binding, KiNativ	HEK293T lysate	1 µM, Lys1 peptide domain 2	–	probe labelling inhibition	24.4%
Nc1ncnc2c1ncn2[C@@H]1O[C@H](COP(=O)(O)OP(=O)(O)O)[C@@H](O)[C@H]1O	GUK1	binding, isothermal titration calorimetry	–	molar ratio 0.297, fitted curve	–	ΔH	-2.95 kcal/mol
COc1ccc(F)cc1C(=O)NCc1ccc(-c2nn([C@@H](C)C(F)(F)F)c(N)c2C(N)=O)cc1	Cyclin-dependent kinase 5, with p25 (CDK5, Homo sapiens, UniProt Q00535)	kinase activity, inhibitor, HotSpot radiometric	–	1000 nM, added: ATP at Km	–	remaining activity	87.2 ± 0.6%
OC[C@H]1O[C@@H](Oc2cc3c(O)cc(O)cc3[o+]c2-c2ccc(O)c(O)c2)[C@H](O)[C@@H](O)[C@@H]1O	ALB	van't Hoff analysis	–	concentration not given	–	binding entropy change	0.04 kJ/(mol·K)
OC[C@H]1OC(O)[C@H](O)[C@@H](O)[C@@H]1O (stereo partly drawn)	Hexokinase-3 (HK3, Homo sapiens, UniProt P52790, N221A)	substrate inhibition	–	mutant N221A, complete substrate inhibition model, added: ATP 20 mM	–	kcat	38 ± 23 s⁻¹
c1ccc(C(NCc2cccnc2)(c2ccccc2)c2ccccc2)cc1	KCNQ1 (Homo sapiens, UniProt P51787)	whole-cell patch clamp	–	300 pM	–	current decay	55 ± 12%
N#Cc1ccn2c(-c3ccncc3)c(-c3ccc(F)cc3)nc2c1	Carbon catabolite-derepressing protein kinase (SNF1, Candida albicans, UniProt P52497)	kinase binding, competitor, MIB/MS competition, refers to: SNF1	Candida albicans cell lysate	1 µM	relative to: DMSO	log2 fold change	0.012
NC/C(=C\F)COc1cccc(Cn2c(=S)[nH]c(=O)c3[nH]cnc32)c1	Amine oxidase copper-containing 3 (Canis lupus familiaris, UniProt A0A8I3MYY3)	inhibitor	dog adipose tissue	0.3333 µM	–	inhibition	105%
C=C1CC/C=C(\C)CC[C@@H]2[C@@H]1CC2(C)C	uncharacterized protein	binding, competitor, fluorescence displacement	–	20 µM, pH 7.4, added: 1-NPN 20 µM	relative to: 1-NPN alone	relative fluorescence	75.7%
CCC1(O)CCCN(C(=O)c2ccc(-c3ccc(F)c(NC(=O)CCl)c3)cc2)C1 (stereo not drawn)	DNA dC->dU-editing enzyme APOBEC-3A (Homo sapiens, UniProt P31941)	covalent modifier, intact protein mass spectrometry, refers to: adduct +26691 Da	–	25 µM, 3 h, 1-fold molar excess	–	protein adduct	0%
Nc1ncnc2c1ncn2[C@@H]1O[C@H](C[C@@H](N)CC[C@H](N)C(=O)O)[C@@H](O)[C@H]1O	O-methyltransferase (Sorghum bicolor, UniProt A0A1B6PFV1)	–	–	concentration not given, added: RSV+	–	ΔG of binding	-8.59 kcal/mol
C=CC(=O)N1CCC(COCC(=O)N2CCN(c3nc(-c4cnc(N)nc4C(F)F)nc(N4CCOC[C@@H]4C)n3)CC2)CC1	MAP3K15 (Homo sapiens, UniProt Q6ZN16)	KINOMEscan	–	1 µM	–	remaining binding	97%
CN1CCN(c2cc(-c3ccncc3)c(-c3ccc4ccccc4c3)nn2)CC1	PTGFR (Homo sapiens, UniProt P43088)	agonist, FLIPR	–	12.5 µM	–	activation	-0.5%
Cn1c(=O)[nH]c(=O)n2c(CC(=O)Nc3cccc4ccccc34)cnc12	ADORA2A	binding, radioligand competition	–	30 µM, added: [3H]ZM241385	–	displacement	16 ± 4%
CC(C)(COP(=O)(O)OP(=O)(O)OC[C@H]1O[C@@H](n2cnc3c(N)ncnc32)[C@H](O)[C@@H]1OP(=O)(O)O)[C@@H](O)C(=O)NCCC(=O)NCCS	ACLY (Homo sapiens, UniProt P53396)	thermal shift	–	400 µM, ACLY 1 µM	–	melting temperature	46.1 °C

Excerpt of the above:
SMILES	target	test	test system	conditions	how to read	measurement	result
N[C@H](CNC(=O)c1ccc(-c2cccc3ccccc23)s1)C(=O)O	Grin1 with GluN2C	–	–	added: glutamate 300 µM	–	Hill slope	1.1
CC[C@@H]1[C@H](F)C(=O)N[C@@H]1COc1nccc2cc(C(N)=O)c(OC)cc12	EPHA2 (Homo sapiens, UniProt P29317)	ATP probe binding, KiNativ profiling, refers to: activation loop probe site	THP-1 cell lysate	0.04 mM	–	inhibition	-11.2%
O=C(COP(=O)(O)O)[C@@H](O)[C@H](O)[C@H](O)COP(=O)(O)O	Splicing factor U2AF 65 kDa subunit (Homo sapiens, UniProt P26368)	thermal proteome profiling, refers to: U2AF2	HepG2 cell lysate	concentration not given, 57 over 37 °C, mean	relative to: compound over control	thermal stability ratio	0.523
